Measured values of several laboratories.
A part holds a random share of what one study measured. Several values in a cell are separate wells, animals, samples, runs or records.
Chain of UniProt P21397 (whole entry, looked up): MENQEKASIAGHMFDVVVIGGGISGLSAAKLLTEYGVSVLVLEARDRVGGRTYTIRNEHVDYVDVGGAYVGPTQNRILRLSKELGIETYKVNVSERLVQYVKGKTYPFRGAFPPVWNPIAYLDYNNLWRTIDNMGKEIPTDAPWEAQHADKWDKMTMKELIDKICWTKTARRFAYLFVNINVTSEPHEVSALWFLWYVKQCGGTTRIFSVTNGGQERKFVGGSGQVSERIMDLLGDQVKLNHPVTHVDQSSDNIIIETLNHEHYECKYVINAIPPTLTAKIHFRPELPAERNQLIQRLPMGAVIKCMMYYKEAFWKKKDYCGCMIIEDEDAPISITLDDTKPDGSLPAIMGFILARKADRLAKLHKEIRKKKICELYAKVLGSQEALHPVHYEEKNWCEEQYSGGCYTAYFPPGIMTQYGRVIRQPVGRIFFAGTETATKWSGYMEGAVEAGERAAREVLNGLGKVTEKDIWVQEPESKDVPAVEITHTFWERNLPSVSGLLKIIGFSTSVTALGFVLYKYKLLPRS
Chain of UniProt P05164 (whole entry, looked up): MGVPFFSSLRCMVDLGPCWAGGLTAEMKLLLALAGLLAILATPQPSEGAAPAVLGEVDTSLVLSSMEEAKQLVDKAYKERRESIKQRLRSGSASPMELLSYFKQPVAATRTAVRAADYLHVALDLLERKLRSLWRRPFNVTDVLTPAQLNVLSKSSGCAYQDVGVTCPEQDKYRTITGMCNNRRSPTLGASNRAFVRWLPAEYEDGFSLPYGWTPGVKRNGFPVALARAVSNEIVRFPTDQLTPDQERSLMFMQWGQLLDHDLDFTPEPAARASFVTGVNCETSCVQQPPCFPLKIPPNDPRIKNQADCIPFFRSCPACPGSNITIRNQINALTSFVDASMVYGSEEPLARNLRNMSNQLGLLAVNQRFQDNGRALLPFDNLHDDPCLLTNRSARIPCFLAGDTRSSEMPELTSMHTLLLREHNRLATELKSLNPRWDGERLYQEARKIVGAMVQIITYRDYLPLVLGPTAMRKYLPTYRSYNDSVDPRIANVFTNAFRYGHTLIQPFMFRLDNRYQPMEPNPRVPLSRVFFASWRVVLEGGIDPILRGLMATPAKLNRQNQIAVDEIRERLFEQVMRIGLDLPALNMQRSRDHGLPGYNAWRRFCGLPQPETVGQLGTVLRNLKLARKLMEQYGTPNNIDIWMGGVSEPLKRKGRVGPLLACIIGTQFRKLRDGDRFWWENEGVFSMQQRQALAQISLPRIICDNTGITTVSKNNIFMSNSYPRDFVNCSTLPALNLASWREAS
Chain of UniProt P49841 (whole entry, looked up): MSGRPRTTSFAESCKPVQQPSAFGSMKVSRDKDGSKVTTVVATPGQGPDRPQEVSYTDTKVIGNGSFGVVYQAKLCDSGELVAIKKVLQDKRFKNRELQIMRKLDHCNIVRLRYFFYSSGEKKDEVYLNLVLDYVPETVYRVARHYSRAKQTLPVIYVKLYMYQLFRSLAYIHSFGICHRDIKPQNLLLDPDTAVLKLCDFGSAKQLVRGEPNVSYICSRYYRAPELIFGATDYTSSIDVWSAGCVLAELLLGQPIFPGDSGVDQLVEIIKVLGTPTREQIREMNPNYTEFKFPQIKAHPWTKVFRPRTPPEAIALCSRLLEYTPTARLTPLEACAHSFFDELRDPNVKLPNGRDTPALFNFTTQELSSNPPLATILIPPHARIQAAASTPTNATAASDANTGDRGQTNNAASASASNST

Sample 1 — method: FLIPR membrane potential; cell line: CHO-BC; concentration: concentration not given; relative to: 100 µM cinromide set to 0; quantity: remaining activity
Target: Sodium-dependent neutral amino acid transporter B(0)AT1 (SLC6A19, Homo sapiens, UniProt Q695T7)
Chain of UniProt Q695T7 (whole entry, looked up): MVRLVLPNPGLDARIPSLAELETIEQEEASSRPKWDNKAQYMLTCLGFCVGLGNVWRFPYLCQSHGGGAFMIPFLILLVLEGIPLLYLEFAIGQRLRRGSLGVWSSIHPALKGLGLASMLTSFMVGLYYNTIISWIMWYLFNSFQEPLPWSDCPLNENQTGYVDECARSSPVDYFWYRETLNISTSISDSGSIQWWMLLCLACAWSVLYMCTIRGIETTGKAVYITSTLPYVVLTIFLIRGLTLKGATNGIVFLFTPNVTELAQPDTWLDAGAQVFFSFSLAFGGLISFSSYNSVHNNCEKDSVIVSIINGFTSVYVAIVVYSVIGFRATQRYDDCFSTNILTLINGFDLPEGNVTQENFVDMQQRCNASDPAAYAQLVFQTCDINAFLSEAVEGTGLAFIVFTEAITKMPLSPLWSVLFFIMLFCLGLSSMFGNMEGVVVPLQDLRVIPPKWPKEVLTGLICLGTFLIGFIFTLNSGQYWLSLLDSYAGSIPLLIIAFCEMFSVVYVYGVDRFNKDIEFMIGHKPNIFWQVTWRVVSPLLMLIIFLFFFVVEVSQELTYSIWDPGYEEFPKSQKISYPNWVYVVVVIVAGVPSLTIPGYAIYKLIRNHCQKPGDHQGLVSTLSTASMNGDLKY
Cc1cc(OCC(=O)NCc2ccccc2)cc(C)c1Cl: 102%
Cc1cc(OCC(=O)NCCO)cc(C)c1Cl: 109%
CC(C)NC(=O)COc1ccc(Cl)cc1: 38.1%
CCCNC(=O)COc1cc(C)c(Cl)c(C)c1: 16.4%
Cc1cc(OCC(=O)Nc2ccccc2)cc(C)c1Cl: 109%
CCCCNC(=O)COc1cc(C)c(Cl)c(C)c1: 105%
Cc1cc(OCC(=O)NC(C)(C)C)cc(C)c1Cl: 116%
CNC(=O)COc1cc(C)c(Cl)c(C)c1: 42%
Cc1cc(OCC(=O)CC(C)C)cc(C)c1Cl: 107%
Cc1cc(OC(C)C(=O)NC(C)C)cc(C)c1Cl (racemic): 77.5%
CON(C)C(=O)COc1cc(C)c(Cl)c(C)c1: 109%
Cc1cc(OC(C)(C)C(=O)NC(C)C)cc(C)c1Cl: 128%
Cc1cc(Cl)ccc1OCC(=O)NC(C)C: 81.6%
CC(C)NC(=O)COc1ccc(I)cc1: 16.9%

Sample 2 — quantity: inhibition
Structure (SMILES): Cc1ccc(O)c(C)c1-c1cnc2[nH]c(-c3cnc(N4CCC(CN5CCN(c6ccc7c(c6)CN(C6CCC(=O)NC6=O)C7=O)CC5)CC4)nc3)cc2c1C#N (stereo not drawn)
Target: Membrane-associated tyrosine- and threonine-specific cdc2-inhibitory kinase (PKMYT1, Homo sapiens, UniProt Q99640)
Chain of UniProt Q99640 (whole entry, looked up): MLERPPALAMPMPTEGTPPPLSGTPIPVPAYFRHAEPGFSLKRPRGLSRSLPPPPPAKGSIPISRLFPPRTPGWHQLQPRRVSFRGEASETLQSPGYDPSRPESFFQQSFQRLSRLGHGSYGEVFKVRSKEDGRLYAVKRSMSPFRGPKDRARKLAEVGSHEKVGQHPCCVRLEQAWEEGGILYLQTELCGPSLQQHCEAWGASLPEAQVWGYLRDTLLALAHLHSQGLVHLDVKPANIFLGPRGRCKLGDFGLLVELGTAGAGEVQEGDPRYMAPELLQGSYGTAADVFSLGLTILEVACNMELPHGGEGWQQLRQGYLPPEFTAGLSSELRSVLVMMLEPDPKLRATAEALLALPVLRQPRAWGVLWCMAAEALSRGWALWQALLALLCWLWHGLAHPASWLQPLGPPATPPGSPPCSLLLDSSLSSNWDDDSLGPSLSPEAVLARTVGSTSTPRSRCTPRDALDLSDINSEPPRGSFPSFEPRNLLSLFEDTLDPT
0.1111 µM: 101%
0.00137 µM: 23.4%
cell-free assay, inhibitor, TR-FRET; 152 pM: -1.78%
cell-free assay, inhibitor, TR-FRET; 37.04 nM: 99.1%
0.03704 µM: 98.9%
0.01235 µM: 93.2%
0.000152 µM: -1.5%
cell-free assay, inhibitor, TR-FRET; 1 µM: 101%
0.00046 µM: 8.74%
cell-free assay, inhibitor, TR-FRET; 0.1111 µM: 100%

Sample 3 — concentration: 1 µM; quantity: remaining binding
SMILES: CC[C@@]1(c2ccccc2)C2=C(CC(C)(C)CC2=O)Nc2n[nH]cc21
SIK2 (Homo sapiens, UniProt Q9H0K1); binding, competition with immobilised ligand: 78%
MAP2K1 (Homo sapiens, UniProt Q02750); kinase binding, KINOMEscan; relative to: DMSO control: 95%
FLT4 (Homo sapiens, UniProt P35916); binding, competition with immobilised ligand: 100%
MAPK13 (Homo sapiens, UniProt O15264); binding, competition with immobilised ligand: 100%
Ribosomal protein S6 kinase alpha-6, N-terminal kinase domain (RPS6KA6, Homo sapiens, UniProt Q9UK32); binding, competition with immobilised ligand: 100%
MET (Homo sapiens, UniProt P08581); kinase binding, KINOMEscan; relative to: DMSO control: 74%
DYRK1A (Homo sapiens, UniProt Q13627); kinase binding, KINOMEscan; relative to: DMSO control: 95%
TEK (Homo sapiens, UniProt Q02763); binding, competition with immobilised ligand: 100%
EGFR (Homo sapiens, UniProt P00533, A750P/del747-749); kinase binding, KINOMEscan; relative to: DMSO control: 100%
KDR (Homo sapiens, UniProt P35968); kinase binding, KINOMEscan; relative to: DMSO control: 100%
BLK (Homo sapiens, UniProt P51451); binding, competition with immobilised ligand: 100%
PIK3C2B (Homo sapiens, UniProt O00750); binding, competition with immobilised ligand: 100%
ITK (Homo sapiens, UniProt Q08881); binding, competition with immobilised ligand: 100%
GSK3B (Homo sapiens, UniProt P49841); kinase binding, KINOMEscan; relative to: DMSO control: 54%
IKBKE (Homo sapiens, UniProt Q14164); binding, competition with immobilised ligand: 100%
TLK1 (Homo sapiens, UniProt Q9UKI8); kinase binding, KINOMEscan; relative to: DMSO control: 91%
MAP3K11 (Homo sapiens, UniProt Q16584); kinase binding, KINOMEscan; relative to: DMSO control: 100%
RIPK1 (Homo sapiens, UniProt Q13546); binding, competition with immobilised ligand: 98%
CDK18 (Homo sapiens, UniProt Q07002); binding, competition with immobilised ligand: 100%
RIOK2 (Homo sapiens, UniProt Q9BVS4); binding, competition with immobilised ligand: 100%
MATK (Homo sapiens, UniProt P42679); kinase binding, KINOMEscan; relative to: DMSO control: 100%
PRKG2 (Homo sapiens, UniProt Q13237); binding, competition with immobilised ligand: 100%
STK24 (Homo sapiens, UniProt Q9Y6E0); binding, competition with immobilised ligand: 91%

Sample 4 — read-out: thermal unfolding; method: differential scanning fluorimetry; concentration: 5.5 µM; direction: higher = more unfolded; quantity: SYPRO Orange fluorescence
SMILES: C[C@@H]1CN(c2ccc(-c3cc(C(=O)NCCOCCOCCOCCOCCOCCOCCNC(=O)/C=C/c4[nH]cc(C(=O)N[C@@H](CC(N)=O)c5ccc(F)c(Cl)c5)c4-c4ccc(Cl)cc4F)ccc3F)cc2NC(=O)c2ccc(F)cc2C(F)(F)F)C[C@H](C)N1C
DCAF1: DDB1- and CUL4-associated factor 1 (DCAF1, Homo sapiens, UniProt Q9Y4B6)
Chain of UniProt Q9Y4B6 (whole entry, looked up): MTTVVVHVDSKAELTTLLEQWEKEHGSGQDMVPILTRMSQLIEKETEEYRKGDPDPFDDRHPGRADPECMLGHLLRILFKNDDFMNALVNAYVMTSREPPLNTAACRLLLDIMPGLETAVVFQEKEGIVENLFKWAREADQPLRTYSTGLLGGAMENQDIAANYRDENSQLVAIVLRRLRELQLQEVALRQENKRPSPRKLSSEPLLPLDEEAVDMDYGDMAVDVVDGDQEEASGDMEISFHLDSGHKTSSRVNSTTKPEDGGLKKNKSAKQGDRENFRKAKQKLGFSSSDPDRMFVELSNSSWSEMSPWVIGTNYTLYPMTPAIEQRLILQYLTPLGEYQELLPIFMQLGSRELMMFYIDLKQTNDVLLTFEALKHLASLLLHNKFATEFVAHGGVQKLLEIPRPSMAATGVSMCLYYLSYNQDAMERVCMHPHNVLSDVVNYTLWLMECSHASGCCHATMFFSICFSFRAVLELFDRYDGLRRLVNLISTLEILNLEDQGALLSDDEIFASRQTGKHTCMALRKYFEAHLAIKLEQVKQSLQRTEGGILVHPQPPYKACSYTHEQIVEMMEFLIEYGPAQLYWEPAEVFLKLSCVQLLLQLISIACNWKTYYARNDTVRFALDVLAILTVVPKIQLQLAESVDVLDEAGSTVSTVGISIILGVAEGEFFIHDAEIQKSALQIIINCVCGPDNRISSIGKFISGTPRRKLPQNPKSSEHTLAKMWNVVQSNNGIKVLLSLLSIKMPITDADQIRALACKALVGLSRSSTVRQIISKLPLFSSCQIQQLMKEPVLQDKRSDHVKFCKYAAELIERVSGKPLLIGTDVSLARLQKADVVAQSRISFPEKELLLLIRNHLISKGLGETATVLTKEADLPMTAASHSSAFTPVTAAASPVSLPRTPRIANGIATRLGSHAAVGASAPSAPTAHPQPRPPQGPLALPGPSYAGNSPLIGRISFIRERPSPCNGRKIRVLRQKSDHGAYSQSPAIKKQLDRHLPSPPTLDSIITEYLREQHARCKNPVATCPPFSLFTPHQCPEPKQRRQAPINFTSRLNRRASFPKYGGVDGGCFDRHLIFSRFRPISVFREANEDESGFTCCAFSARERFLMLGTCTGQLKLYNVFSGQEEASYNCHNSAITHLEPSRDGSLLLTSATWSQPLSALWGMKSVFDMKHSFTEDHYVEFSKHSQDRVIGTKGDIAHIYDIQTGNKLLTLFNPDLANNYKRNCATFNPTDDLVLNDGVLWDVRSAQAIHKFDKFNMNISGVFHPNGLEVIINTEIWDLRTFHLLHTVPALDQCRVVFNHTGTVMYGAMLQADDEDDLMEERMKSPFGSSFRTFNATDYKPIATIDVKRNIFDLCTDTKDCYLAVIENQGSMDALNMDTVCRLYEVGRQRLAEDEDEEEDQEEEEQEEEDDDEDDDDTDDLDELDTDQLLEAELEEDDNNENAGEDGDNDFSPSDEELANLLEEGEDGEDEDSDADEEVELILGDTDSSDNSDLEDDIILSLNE
WDR5: WD repeat-containing protein 5 (WDR5, Homo sapiens, UniProt P61964)
DCAF1; 73.01 °C: 45700 a.u.
DCAF1; 41.4 °C: 12400 a.u.
WDR5; 62.61 °C: 15300 a.u.
WDR5; 44.4 °C: 14500 a.u.
DCAF1; 50 °C: 18100 a.u.
WDR5; 46.6 °C: 15000 a.u.
DCAF1; 72.21 °C: 46200 a.u.
DCAF1; 40.6 °C: 11800 a.u.
DCAF1; 67.01 °C: 51500 a.u.
DCAF1; 73.61 °C: 45200 a.u.
DCAF1; 54.21 °C: 24900 a.u.

Sample 5 — Structure (SMILES): CS(=O)(=O)c1ccc(OC/C(=C/F)CN)cc1.Cl; quantity: inhibition
MAOB: Amine oxidase [flavin-containing] B (MAOB, Homo sapiens, UniProt P27338)
Chain of UniProt P27338 (whole entry, looked up): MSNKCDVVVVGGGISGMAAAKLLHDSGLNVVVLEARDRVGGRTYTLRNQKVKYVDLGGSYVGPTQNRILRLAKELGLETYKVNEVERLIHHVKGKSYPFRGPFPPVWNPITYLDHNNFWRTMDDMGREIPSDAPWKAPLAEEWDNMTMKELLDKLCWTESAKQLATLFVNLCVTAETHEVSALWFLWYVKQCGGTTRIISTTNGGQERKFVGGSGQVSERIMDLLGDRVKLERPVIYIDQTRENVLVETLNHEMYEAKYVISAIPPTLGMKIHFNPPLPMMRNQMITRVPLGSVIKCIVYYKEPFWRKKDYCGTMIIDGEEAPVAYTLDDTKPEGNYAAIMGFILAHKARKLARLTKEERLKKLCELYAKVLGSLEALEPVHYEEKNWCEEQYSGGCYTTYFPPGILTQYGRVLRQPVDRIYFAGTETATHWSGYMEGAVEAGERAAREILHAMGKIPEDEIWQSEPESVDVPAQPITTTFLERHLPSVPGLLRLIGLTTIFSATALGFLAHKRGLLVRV
Amine oxidase [copper-containing] 3: Amine oxidase [copper-containing] 3 (Mus musculus, UniProt O70423)
MAOA (Homo sapiens, UniProt P21397); enzyme activity, inhibitor; 30 µM: 30.7% and 27.6% and 22.5% and 22.2% and 15.9%
MAOB; enzyme activity, inhibitor; 0.1235 µM: -0.785% and -4.11%
Amine oxidase [copper-containing] 3; mouse adipose tissue; 0.0014 µM: 29.3%
MAOB; enzyme activity, inhibitor; 10 µM: 3.81% and 1.47%
Amine oxidase [copper-containing] 3; mouse adipose tissue; 1.694e-05 µM: -3.68%
Myeloperoxidase (MPO, Homo sapiens, UniProt P05164); enzyme activity, inhibitor, fluorescence; 0.3704 µM: 3.32% and -4.86% and -0.733%

Sample 6 — read-out: binding; mode: competitor; method: NanoBRET; cell line: HEK293; quantity: normalized BRET
Compound: C=CC(=O)N1CCN(c2nc(OC[C@@H]3CCCN3C)nc3c2CCN(c2cccc4cccc(C)c24)C3)C[C@@H]1CC#N
KRAS G12D: GTPase KRas (KRAS, Homo sapiens, UniProt P01116, G12D)
HRAS: GTPase HRas (HRAS, Homo sapiens, UniProt P01112)
KRAS Q61R: GTPase KRas (KRAS, Homo sapiens, UniProt P01116, Q61R)
KRAS G12D; 6.67 µM: 36.2% and 27.9%
KRAS G12D; 625 nM: 104%
KRAS G12D; 20 µM: 12.4% and 13.4%
HRAS; 6.67 µM: 129% and 108%
HRAS; 247 nM: 88.8% and 106%
GTPase KRas (KRAS, Homo sapiens, UniProt P01116, Q61L); 20 µM: 14.9% and 14.3% and 21.4%
HRAS; 9.77 nM: 114%
KRAS Q61R; 9.14 nM: 92.6% and 97.3% and 102%
HRAS; 38.1 pM: 109%
KRAS Q61R; 1.02 nM: 101% and 92.3% and 98.9%

Sample 7 — read-out: kinase activity; quantity: inhibition
SMILES: CNc1ncc2cc(-c3cc(OC)cc(OC)c3Cl)c(=O)n(CCc3ccc(NC(=O)C(C#N)=CC(C)(C)N4CCOCC4)cc3)c2n1
PRKG1 (Homo sapiens, UniProt Q13976); 1 µM: 3%
IKBKB (Homo sapiens, UniProt O14920); 1 µM: -1%
MARK1 (Homo sapiens, UniProt Q9P0L2); 1 µM: 0%
NTRK1 (Homo sapiens, UniProt P04629); 1 µM: 0%
YES1 (Homo sapiens, UniProt P07947); 0.1 µM: 4%
PAK5 (Homo sapiens, UniProt Q9P286); 0.1 µM: -3%
HIPK2 (Homo sapiens, UniProt Q9H2X6); 0.1 µM: -5%
CAMK2B (Homo sapiens, UniProt Q13554); 1 µM: 4%
DYRK1A (Homo sapiens, UniProt Q13627); 1 µM: -2%
MAPKAPK5 (Homo sapiens, UniProt Q8IW41); 0.1 µM: 1%
CLK4 (Homo sapiens, UniProt Q9HAZ1); 1 µM: -2%
CSNK2A1 (Homo sapiens, UniProt P68400); 0.1 µM: 10%
GSK3B (Homo sapiens, UniProt P49841); 0.1 µM: 0%
PIM2 (Homo sapiens, UniProt Q9P1W9); 0.1 µM: 1%
CLK2 (Homo sapiens, UniProt P49760); 1 µM: -2%

Sample 8 — method: qRT-PCR; host: mouse, PK-59 xenograft; matrix: tumour; notes: unit not given; quantity: mRNA level
SMILES: Cc1ncsc1-c1ccc(C(CO)NC(=O)C2CC(O)CN2C(=O)C(C(C)C)n2cc(-c3ccc(COc4c(-c5c(C)c(F)cc6[nH]ncc56)c(C5CC5)cc5c(N6CC7CC6CN7)nc(OC6CCOCC6)nc45)cc3)nn2)cc1 (stereo not drawn)
refers to: MYC; 30 mg/kg, 6 h; relative to: vehicle: 0.464 and 0.436 and 0.489
refers to: SPRY4; 10 mg/kg, 72 h; relative to: vehicle: 0.26 and 0.231 and 0.2
refers to: DUSP4; intravenous, 10 mg/kg, 72 h; relative to: vehicle, same time point: 0.11 and 0.0926 and 0.0863
refers to: MYC; intravenous, 10 mg/kg, 144 h; relative to: vehicle, same time point: 0.0753 and 0.0787 and 0.108
refers to: FOSL1; intravenous, 10 mg/kg, 72 h; relative to: vehicle, same time point: 0.00392 and 0.00386 and 0.00353
refers to: FOSL1; intravenous, 30 mg/kg, 48 h; relative to: vehicle, same time point: 0.000675 and 0.000615
refers to: SPRY4; intravenous, 30 mg/kg, 144 h; relative to: vehicle, same time point: 0.00452 and 0.00328
refers to: ETV4; 30 mg/kg, 2 h; relative to: vehicle: 1.14 and 0.792 and 0.747
refers to: MYC; 10 mg/kg, 72 h; relative to: vehicle: 0.713 and 0.534 and 0.659

Further values, each from its own experiment
CCN1/C(=C/C=C2\CCCC(/C=C/C3=[N+](CC)c4ccccc4C3(C)C)=C2NCCCCCCCCN2CCC(Nc3nc4ccccc4n3Cc3ccc(F)cc3)CC2)C(C)(C)c2ccccc21  particle diameter (dynamic light scattering; PBS; pH 7.4): 524 nm
